Results collected from several papers.
Lines come from different studies, so protocols differ. Numbers after ± are the reported error.
14-3-3 protein epsilon: 14-3-3 protein epsilon (Homo sapiens, UniProt P62258)
UniProt P62258, sequence (whole entry, looked up): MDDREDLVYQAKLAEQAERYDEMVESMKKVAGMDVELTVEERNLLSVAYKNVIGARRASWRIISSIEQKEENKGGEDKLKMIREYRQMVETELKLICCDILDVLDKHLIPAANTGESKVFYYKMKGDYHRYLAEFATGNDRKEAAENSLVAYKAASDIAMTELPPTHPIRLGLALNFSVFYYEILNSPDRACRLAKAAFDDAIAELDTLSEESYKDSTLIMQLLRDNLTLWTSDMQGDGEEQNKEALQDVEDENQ
Chymotrypsin-C: Chymotrypsin-C (Homo sapiens, UniProt Q99895)
UniProt Q99895, sequence (whole entry, unmodified, looked up): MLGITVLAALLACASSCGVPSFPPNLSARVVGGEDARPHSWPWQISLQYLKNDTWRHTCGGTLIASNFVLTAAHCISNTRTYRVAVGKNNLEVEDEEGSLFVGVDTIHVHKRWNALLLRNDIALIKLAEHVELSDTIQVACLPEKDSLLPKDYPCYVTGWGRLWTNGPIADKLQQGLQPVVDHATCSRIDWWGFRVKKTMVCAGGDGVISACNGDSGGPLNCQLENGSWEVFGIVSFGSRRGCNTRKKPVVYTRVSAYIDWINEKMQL
Magi2: Membrane-associated guanylate kinase, WW and PDZ domain-containing protein 2 (Magi2, Mus musculus, UniProt Q9WVQ1)
UniProt Q9WVQ1, sequence (whole entry, looked up): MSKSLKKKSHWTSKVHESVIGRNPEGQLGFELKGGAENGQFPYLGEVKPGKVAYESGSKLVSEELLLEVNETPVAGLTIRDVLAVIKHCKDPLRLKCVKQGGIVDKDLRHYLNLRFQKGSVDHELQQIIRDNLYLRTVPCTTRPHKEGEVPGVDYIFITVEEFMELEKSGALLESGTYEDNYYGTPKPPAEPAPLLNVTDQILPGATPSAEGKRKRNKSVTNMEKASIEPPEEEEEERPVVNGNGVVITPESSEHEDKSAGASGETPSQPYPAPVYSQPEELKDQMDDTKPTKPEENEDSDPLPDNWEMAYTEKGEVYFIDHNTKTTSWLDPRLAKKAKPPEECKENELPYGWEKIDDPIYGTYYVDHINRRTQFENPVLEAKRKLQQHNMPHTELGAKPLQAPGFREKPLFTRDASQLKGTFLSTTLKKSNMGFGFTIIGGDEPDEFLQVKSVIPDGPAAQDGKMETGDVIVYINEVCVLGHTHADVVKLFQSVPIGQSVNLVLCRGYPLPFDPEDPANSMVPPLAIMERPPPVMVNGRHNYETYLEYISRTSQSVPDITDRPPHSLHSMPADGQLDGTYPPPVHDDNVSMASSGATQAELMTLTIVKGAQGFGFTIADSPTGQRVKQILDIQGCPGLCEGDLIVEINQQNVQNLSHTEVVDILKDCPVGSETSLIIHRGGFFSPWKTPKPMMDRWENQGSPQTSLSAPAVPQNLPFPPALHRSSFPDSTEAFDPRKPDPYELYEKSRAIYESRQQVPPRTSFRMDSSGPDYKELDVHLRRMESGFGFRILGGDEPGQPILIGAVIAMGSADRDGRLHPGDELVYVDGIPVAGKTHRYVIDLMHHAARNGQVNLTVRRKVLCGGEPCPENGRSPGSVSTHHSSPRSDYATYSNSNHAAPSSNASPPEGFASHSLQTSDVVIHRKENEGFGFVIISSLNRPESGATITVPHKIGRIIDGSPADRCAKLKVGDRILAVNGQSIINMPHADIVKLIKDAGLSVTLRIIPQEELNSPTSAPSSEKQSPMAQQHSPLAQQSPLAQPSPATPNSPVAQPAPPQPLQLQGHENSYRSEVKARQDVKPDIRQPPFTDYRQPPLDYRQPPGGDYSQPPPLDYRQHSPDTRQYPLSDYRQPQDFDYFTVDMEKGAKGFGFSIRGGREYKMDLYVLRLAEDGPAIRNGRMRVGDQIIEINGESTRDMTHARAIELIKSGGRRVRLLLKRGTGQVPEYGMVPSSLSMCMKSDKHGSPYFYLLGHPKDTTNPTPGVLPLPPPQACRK
UniProt P09619, sequence (whole entry, looked up): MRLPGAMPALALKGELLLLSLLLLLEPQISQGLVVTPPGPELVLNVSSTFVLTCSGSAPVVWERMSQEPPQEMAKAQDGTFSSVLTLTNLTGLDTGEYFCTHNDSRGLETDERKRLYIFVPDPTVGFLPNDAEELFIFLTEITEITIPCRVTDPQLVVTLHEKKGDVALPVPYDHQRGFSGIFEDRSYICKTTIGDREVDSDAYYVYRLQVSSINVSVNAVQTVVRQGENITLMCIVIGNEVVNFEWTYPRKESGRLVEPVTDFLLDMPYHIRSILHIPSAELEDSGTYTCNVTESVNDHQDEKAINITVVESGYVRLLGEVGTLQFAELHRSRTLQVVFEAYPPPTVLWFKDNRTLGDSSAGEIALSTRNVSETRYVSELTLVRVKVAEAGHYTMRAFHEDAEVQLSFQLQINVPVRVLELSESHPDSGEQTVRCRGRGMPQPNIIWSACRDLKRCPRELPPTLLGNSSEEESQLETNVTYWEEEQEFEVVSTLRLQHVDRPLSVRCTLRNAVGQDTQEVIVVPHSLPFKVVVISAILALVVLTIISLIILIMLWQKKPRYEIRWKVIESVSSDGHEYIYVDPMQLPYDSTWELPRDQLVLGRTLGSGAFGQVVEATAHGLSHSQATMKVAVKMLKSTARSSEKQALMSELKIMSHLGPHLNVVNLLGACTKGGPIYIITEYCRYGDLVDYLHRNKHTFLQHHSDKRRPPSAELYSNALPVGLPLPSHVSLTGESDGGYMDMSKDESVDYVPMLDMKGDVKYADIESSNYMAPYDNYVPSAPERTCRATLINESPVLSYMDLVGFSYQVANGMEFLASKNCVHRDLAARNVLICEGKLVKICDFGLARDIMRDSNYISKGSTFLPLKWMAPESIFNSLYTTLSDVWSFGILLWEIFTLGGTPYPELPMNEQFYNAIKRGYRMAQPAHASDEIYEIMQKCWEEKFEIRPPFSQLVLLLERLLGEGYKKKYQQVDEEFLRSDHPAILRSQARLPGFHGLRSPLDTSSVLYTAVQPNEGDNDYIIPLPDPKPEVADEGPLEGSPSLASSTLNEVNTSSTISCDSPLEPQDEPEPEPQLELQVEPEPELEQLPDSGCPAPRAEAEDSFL
UniProt Q07820, sequence (whole entry, looked up): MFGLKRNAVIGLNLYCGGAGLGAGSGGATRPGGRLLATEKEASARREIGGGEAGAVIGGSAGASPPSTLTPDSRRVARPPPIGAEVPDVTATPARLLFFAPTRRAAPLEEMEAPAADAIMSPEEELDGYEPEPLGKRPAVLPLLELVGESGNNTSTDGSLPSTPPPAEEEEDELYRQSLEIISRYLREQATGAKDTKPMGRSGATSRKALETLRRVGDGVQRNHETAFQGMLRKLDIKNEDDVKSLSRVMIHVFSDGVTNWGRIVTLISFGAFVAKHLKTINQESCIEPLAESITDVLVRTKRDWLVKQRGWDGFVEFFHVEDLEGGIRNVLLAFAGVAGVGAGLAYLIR
UniProt P00519, sequence (whole entry, looked up): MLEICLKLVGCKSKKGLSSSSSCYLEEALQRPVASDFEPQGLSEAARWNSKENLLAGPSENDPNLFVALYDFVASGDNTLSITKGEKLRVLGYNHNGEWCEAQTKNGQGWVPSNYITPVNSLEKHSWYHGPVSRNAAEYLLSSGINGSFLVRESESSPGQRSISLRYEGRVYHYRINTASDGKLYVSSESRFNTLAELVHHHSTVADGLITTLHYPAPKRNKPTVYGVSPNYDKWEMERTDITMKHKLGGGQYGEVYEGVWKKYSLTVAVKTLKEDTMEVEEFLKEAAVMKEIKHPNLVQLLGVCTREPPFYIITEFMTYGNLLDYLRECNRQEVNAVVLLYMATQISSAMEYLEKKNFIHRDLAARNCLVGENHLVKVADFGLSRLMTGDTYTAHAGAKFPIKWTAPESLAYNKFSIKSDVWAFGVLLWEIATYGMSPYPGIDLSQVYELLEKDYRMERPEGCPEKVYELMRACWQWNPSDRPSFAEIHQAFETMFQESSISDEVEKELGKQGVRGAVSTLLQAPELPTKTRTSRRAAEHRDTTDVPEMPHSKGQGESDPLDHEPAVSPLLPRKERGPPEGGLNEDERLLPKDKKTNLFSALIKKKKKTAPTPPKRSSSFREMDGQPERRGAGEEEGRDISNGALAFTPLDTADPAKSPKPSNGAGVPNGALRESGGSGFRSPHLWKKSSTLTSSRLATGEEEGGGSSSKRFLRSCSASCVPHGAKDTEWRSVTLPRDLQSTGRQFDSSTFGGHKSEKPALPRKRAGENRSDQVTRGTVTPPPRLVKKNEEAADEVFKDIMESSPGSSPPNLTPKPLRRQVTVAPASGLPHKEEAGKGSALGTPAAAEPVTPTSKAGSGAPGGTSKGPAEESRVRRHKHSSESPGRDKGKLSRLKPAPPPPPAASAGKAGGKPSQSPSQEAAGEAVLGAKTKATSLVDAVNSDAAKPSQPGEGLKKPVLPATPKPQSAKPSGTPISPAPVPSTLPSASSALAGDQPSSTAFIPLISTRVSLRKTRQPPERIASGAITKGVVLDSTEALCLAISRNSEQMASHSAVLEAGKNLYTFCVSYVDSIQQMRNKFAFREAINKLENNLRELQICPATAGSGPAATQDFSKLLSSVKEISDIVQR
UniProt Q9H4B4, sequence (whole entry, looked up): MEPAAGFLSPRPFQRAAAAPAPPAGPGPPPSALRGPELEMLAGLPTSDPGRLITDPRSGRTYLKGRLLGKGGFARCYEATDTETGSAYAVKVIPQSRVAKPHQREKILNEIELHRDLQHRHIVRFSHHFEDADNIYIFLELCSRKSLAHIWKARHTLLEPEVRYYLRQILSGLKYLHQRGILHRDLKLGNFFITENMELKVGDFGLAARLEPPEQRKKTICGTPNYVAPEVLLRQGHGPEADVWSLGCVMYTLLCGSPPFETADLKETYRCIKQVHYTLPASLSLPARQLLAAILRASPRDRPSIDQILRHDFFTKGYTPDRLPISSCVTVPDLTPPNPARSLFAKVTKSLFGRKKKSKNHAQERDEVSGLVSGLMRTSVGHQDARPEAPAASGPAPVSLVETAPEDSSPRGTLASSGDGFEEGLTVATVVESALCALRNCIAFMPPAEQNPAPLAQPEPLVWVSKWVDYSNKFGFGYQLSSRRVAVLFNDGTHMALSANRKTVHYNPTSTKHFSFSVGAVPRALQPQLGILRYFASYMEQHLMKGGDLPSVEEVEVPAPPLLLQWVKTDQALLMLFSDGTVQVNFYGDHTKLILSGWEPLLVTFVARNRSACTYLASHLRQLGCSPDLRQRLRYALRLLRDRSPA

For CC(C)C[C@H](NC(=O)[C@H](CCCNC(=N)N)NC(=O)[C@H](CC(C)C)NC(=O)[C@H](CO)NC(=S)Nc1ccc2c(c1)C(=O)OC21c2ccc(O)cc2Oc2cc(O)ccc21)C(=O)N[C@@H](CCCCN)C(=O)N[C@@H](CS)C(=O)NCC(=O)N[C@@H](CCP(=O)(O)O)C(=O)NCC(=O)N1CCC[C@H]1C(=O)N[C@H](C(=O)N[C@@H](Cc1c[nH]c2ccccc12)C(=O)N[C@@H](CC(C)C)C(=O)N[C@H](C(=O)N1CCC[C@H]1C(=O)N[C@@H](CCCNC(=N)N)C(=O)O)C(C)C)C(C)C, the Kd was 63000 nM (14-3-3 protein epsilon; binding, fluorescence anisotropy; pH 7.5, FITC-labelled phosphopeptide titration).
With C[C@H](NC(=O)[C@H](Cc1c[nH]c2ccccc12)NC(=O)[C@H](CO)NC(=O)[C@H](Cc1ccc(O)cc1)NC(=O)[C@@H](N)CC(=O)O)C(=O)N[C@@H](CCC(=O)O)C(=O)N[C@@H](CCC(=O)O)C(=O)N[C@@H](CCC(=O)O)C(=O)N[C@@H](CCC(=O)O)C(=O)N[C@@H](CCC(=O)O)C(=O)N[C@@H](CCC(=O)O)C(=O)N[C@@H](CC(=O)O)C(=O)N[C@@H](CCC(=O)O)C(=O)N[C@@H](CCC(=O)O)C(=O)O the Kd was 300 ± 100 nM (Histone H2B 1.1/Histone H2A type 1 (Xenopus laevis, UniProt P02281+P06897); binding, intrinsic tryptophan fluorescence; pH 7.6, 20 °C, added: H2A/H2B).
The Kd of O=C(N[C@@H]1c2ccccc2C[C@H]1N1CCCC1)c1ccc(-c2ccnc3[nH]ccc23)nc1 is reported as 2050 nM (eIF-2-alpha kinase GCN2, C-terminal kinase domain (EIF2AK4, Homo sapiens, UniProt Q9P2K8, S808G); binding, competition with immobilised ligand).
For CC(C)C[C@@H]1NC(=O)CNC(=O)[C@@H]2CSSC[C@@H]3NC(=O)[C@H]([C@@H](C)O)NC(=O)[C@H](CC(N)=O)NC(=O)[C@H](CSSC[C@@H](C(=O)N[C@@H](Cc4ccc(O)cc4)C(=O)N[C@@H](CCC(N)=O)C(=O)O)NC(=O)[C@H](CC(C)C)NC(=O)[C@H](C)NC1=O)NC(=O)[C@H](CCCCN)NC(=O)[C@H](CC(=O)O)NC(=O)[C@H](CCCCN)NC(=O)[C@H](Cc1ccccc1)NC(=O)[C@H]([C@@H](C)O)NC(=O)[C@H]([C@@H](C)O)NC(=O)CNC(=O)[C@@H]1CCCN1C(=O)[C@H](CCC(=O)O)NC(=O)[C@@H](NC(=O)[C@@H](NC(=O)[C@@H](NC(=O)[C@H](CCC(=O)O)NC(=O)[C@H](CO)NC(=O)CN)C(C)C)[C@@H](C)O)CSSC[C@H](NC(=O)[C@H](CCCNC(=N)N)NC3=O)C(=O)NCC(=O)N[C@@H](CO)C(=O)N[C@@H](CC(=O)O)C(=O)NCC(=O)N[C@@H](CCCCN)C(=O)N[C@@H](CO)C(=O)N[C@@H](C)C(=O)N[C@@H](Cc1ccc(O)cc1)C(=O)N2, the Kd was 21.8 nM (Chymotrypsin-C; cell-free assay, FP; pH 8).
O=C1NC2(CC2)COc2ncc(F)cc2[C@H]2COCCN2c2ccn3ncc1c3n2 gave a creatinine of 34.4 ± 4.7 µmol/L (Sprague-Dawley rat, female, serum; oral, 5 mg/kg/day, 4 weeks daily, end of treatment).
CC(C)C[C@H](NC(=O)[C@@H]1CCCN1C(=O)CCOCCOCCOCCOCCOCCOCCOCCOCCNC(=S)Nc1ccc2c(c1)C(=O)OC21c2ccc(O)cc2Oc2cc(O)ccc21)C(=O)N[C@@H](Cc1cncn1CCCCCCCCc1ccccc1)C(=O)N[C@@H](C)C(=O)N[C@H](C(N)=O)[C@@H](C)CP(=O)(O)O gave a Kd of greater than 2560 nM (Serine/threonine-protein kinase PLK3, polo-box domain (PLK3, Homo sapiens, UniProt Q9H4B4)).
CC(C)C[C@H](NC(=O)[C@H](CO)NC(=O)[C@@H]1CCCN1C(=O)[C@H](CCC(N)=O)NC(=O)[C@@H](NC(=O)[C@H](C)NC(=O)[C@H](CCCCN)NC(=O)[C@H](CC(C)C)NC(=O)[C@H](Cc1ccc(O)cc1)NC(=O)[C@H](COP(=O)(O)O)NC(=O)[C@H](CCC(=O)O)NC(=O)[C@@H](NC(=O)[C@H](CCCNC(=N)N)NC(=O)[C@H](C)NC(=O)[C@H](C)N)C(C)C)[C@@H](C)O)C(=O)O has a Kd of 6000 ± 600 nM (Magi2; ITC; pH 8.0, 25 °C, added: tandem peptide).
With CC(=O)N[C@@H](CCCNC(=N)N)C(=O)N[C@H](C(=O)N[C@@H](CCCCN)C(=O)N[C@@H](CO)C(=O)N[C@@H](CCCNC(=N)N)C(=O)N[C@H](C(=O)N[C@@H](Cc1c[nH]c2ccccc12)C(=O)N[C@@H](C)C(=O)N[C@@H](Cc1c[nH]c2ccccc12)C(N)=O)[C@@H](C)OP(=O)(O)O)[C@@H](C)O the Kd was 85.4 nM (14-3-3 protein epsilon; binding, SPR).
With CC(C)C[C@H](NC(=O)[C@@H]1CCCN1C(=O)[C@H](CCCCN)NC(=O)[C@@H](N)CO)C(=O)N1CCC[C@H]1C(=O)N[C@@H](CCC(=O)O)C(=O)N[C@H](C(=O)N[C@H](C(=O)N[C@@H](CC(=O)O)C(=O)N[C@@H](CCC(=O)O)C(=O)N[C@@H](Cc1ccc(O)cc1)C(=O)NCC(=O)NCCOCCOCCOCCOCCOCCOCCOCCOCCOCCOCCOCCOCCOCCOCCOCCOCCOCCOCCOCCOCCOCCOCCOCCOCCC(=O)N[C@@H](CCCCNC(=O)CC[C@H](C(=O)O)N1CCN(CC(=O)O)CCN(CC(=O)O)CC1)C(=O)N1CCN(CCCN(C)c2ccc3nccc(C(=O)NCC(=O)N4CC(F)(F)C[C@H]4C#N)c3c2)CC1)[C@@H](C)O)C(C)C [copper-64 labelled] the Kd was 3.34 nM (FAP (Homo sapiens, UniProt Q12884); binding, 64Cu radioligand saturation; HT-1080 expressing hFAP; 1 h, 37 °C, added: FAPI-04 1 µM for nonspecific).
C=CC[C@H]1OC(=O)CCNC(=O)[C@H](C)N(C)C(=O)[C@H]([C@@H](C)CC)N(C)C(=O)[C@H]([C@@H](C)CC)NC(=O)[C@@H]2[C@@H](C)CCN2C1=O has a Kd of 9060 nM (Platelet-derived growth factor receptor beta, extracellular domain (PDGFRB, Homo sapiens, UniProt P09619); SPR; 35 °C, extracellular domain immobilised).
With CC(C)C[C@H](NC(=O)[C@H](CO)NC(=O)[C@@H]1CCCN1C(=O)[C@H](CCC(N)=O)NC(=O)[C@@H](NC(=O)[C@H](C)NC(=O)[C@H](CCCCN)NC(=O)[C@H](CC(C)C)NC(=O)[C@H](Cc1ccc(O)cc1)NC(=O)[C@H](COP(=O)(O)O)NC(=O)[C@H](C)NC(=O)[C@H](CCCNC(=N)N)NC(=O)[C@H](CCCNC(=N)N)NC(=O)[C@H](C)NC(=O)[C@H](C)N)[C@@H](C)O)C(=O)O the Kd was 90 ± 10 nM (Magi2; ITC; pH 8.0, 25 °C, added: tandem peptide).
CSCC[C@@H]1NC(=O)[C@H](CC(C)C)NC(=O)[C@H]([C@@H](C)O)NC(=O)[C@@H]2CSSC[C@@H]3NC(=O)[C@H]([C@@H](C)O)NC(=O)[C@H](CC(N)=O)NC(=O)[C@H](CSSC[C@@H](C(=O)N[C@@H](CC(=O)O)C(=O)N[C@@H](CCC(N)=O)C(=O)O)NC(=O)[C@H](CC(C)C)NC1=O)NC(=O)[C@H](CCCCN)NC(=O)[C@H](CC(=O)O)NC(=O)[C@H](CCCCN)NC(=O)[C@H](Cc1ccccc1)NC(=O)[C@H]([C@@H](C)O)NC(=O)[C@H]([C@@H](C)O)NC(=O)CNC(=O)[C@@H]1CCCN1C(=O)[C@H](CCC(=O)O)NC(=O)[C@@H](NC(=O)[C@@H](NC(=O)[C@@H](NC(=O)[C@H](CCC(=O)O)NC(=O)[C@H](CO)NC(=O)CN)C(C)C)[C@@H](C)O)CSSC[C@H](NC(=O)[C@H](CCCNC(=N)N)NC3=O)C(=O)NCC(=O)N[C@@H](CO)C(=O)N[C@@H](CC(=O)O)C(=O)NCC(=O)N[C@@H](CCCCN)C(=O)N[C@@H](CO)C(=O)N[C@@H](C)C(=O)N[C@@H](Cc1ccc(O)cc1)C(=O)N2 has a Kd of 0.72 ± 0.1 nM (Chymotrypsin-C (Homo sapiens, UniProt Q99895, S216A); competitive fluorescence polarization; 24 h, pH 8.0, added: FITC-labelled tracer).
With CSCC[C@H](NC(=O)CNC(=O)[C@H](CCCNC(=N)N)NC(=O)[C@H](C)NC(=O)[C@@H](NC(=O)[C@H](CCC(N)=O)NC(=O)[C@H](Cc1ccc(OP(=O)(O)O)cc1)NC(=O)[C@H](C)NC(=O)[C@H](CS)NC(=O)[C@H](CO)NC(=O)[C@@H](NC(=O)[C@H](CC(C)C)NC(=O)[C@H](CC(=O)O)NC(=O)[C@H](CCCCN)NC(=O)[C@H](CO)NC(=O)[C@H](CO)NC(=O)c1ccc2c(c1)C(=O)OC21c2ccc(N(C)C)cc2Oc2cc(N(C)C)ccc21)C(C)C)C(C)C)C(=O)N[C@@H](CCC(=O)O)C(=O)N[C@@H](CC(=O)O)C(=O)O the Kd was 327 nM (Tyrosine-protein kinase ABL1, SH2 domain (ABL1, Homo sapiens, UniProt P00519); binding).
For CSCC[C@@H]1NC(=O)[C@H](CC(C)C)NC(=O)[C@H](Cc2c[nH]c3ccccc23)NC(=O)[C@@H]2CSSC[C@@H]3NC(=O)[C@H]([C@@H](C)O)NC(=O)[C@H](CC(N)=O)NC(=O)[C@H](CSSC[C@@H](C(=O)N[C@@H](CC(=O)O)C(=O)N[C@@H](CCC(N)=O)C(=O)O)NC(=O)[C@H](CC(C)C)NC1=O)NC(=O)[C@H](CCCCN)NC(=O)[C@H](CC(=O)O)NC(=O)[C@H](CCCCN)NC(=O)[C@H](Cc1ccccc1)NC(=O)[C@H]([C@@H](C)O)NC(=O)[C@H]([C@@H](C)O)NC(=O)CNC(=O)[C@@H]1CCCN1C(=O)[C@H](CCC(=O)O)NC(=O)[C@@H](NC(=O)[C@@H](NC(=O)[C@@H](NC(=O)[C@H](CCC(=O)O)NC(=O)[C@H](CO)NC(=O)CN)C(C)C)[C@@H](C)O)CSSC[C@H](NC(=O)[C@H](CCCNC(=N)N)NC3=O)C(=O)NCC(=O)N[C@@H](CO)C(=O)N[C@@H](CC(=O)O)C(=O)NCC(=O)N[C@@H](CCCCN)C(=O)N[C@@H](CO)C(=O)N[C@@H](C)C(=O)N[C@@H](C)C(=O)N2, the Kd was 9.71 nM (Chymotrypsin-C; cell-free assay, FP; pH 8).
The Kd of CC[C@H](C)[C@H](NC(=O)[C@H](CCCNC(=N)N)NC(=O)[C@H](CCCNC(=N)N)NC(=O)[C@H](CC(C)C)NC(=O)[C@H](CCC(=O)O)NC(=O)[C@H](CCC(N)=O)NC(=O)[C@H](C)NC(=O)[C@@H](NC(=O)[C@H](CNC(=O)CCl)NC(C)=O)[C@@H](C)CC)C(=O)NCC(=O)N[C@@H](CC(=O)O)C(=O)N[C@@H](CCC(=O)O)C(=O)N[C@@H](Cc1ccccc1)C(=O)N[C@@H](CC(N)=O)C(=O)N[C@@H](C)C(=O)N[C@@H](Cc1ccc(O)cc1)C(=O)N[C@@H](Cc1ccc(O)cc1)C(=O)N[C@@H](C)C(=O)N[C@@H](CCCNC(=N)N)C(=O)N[C@@H](CCCNC(=N)N)C(N)=O is reported as 2 nM (MCL1 (Homo sapiens, UniProt Q07820); binding, ITC).
